Results collected from several papers.
Protocols differ between the studies behind these lines.

O=c1cc(/C=C/c2ccc(N3CCOCC3)cc2)oc(/C=C/c2ccc(N3CCOCC3)cc2)c1  emission maximum (acetonitrile/water 1:19 v/v; 10 µM, 298 K, aggregate nanoparticle suspension): 557 nm
CCCCN1C(=O)c2cccc3c(NCCCCN4CCOCC4)ccc(c23)C1=O  emission maximum (chloroform): 498 nm
CC1(C)C(/C=C/C2=C(Cl)C(=C/C=C3/N(CCCCCC(=O)O)c4ccccc4C3(C)C)/C[N+](C)(C)C2)=[N+](CCCCCC(=O)O)c2ccccc21  emission maximum (methanol): 781 nm
Nc1ccc2cc(/C=C/C(=O)c3ccc(O)cc3)ccc2c1  emission maximum (toluene; 20 °C): 512 nm
CN(C)c1ccc(/C=C/c2cc(=O)cc(/C=C/c3ccc(N(C)C)cc3)o2)cc1  emission maximum (acetonitrile/water 1:19 v/v; 10 µM, 298 K, aggregate nanoparticle suspension): 602 nm
CCCCN1C(=O)c2cccc3c(NCCCCCCCCN4CCOCC4)ccc(c23)C1=O  emission maximum (toluene): 503 nm
COC(=O)c1ccccc1-c1c2ccc(=O)cc-2oc2c1ccc1cccc(O)c12  emission maximum (12.5 mM aqueous NaOH; pH 12.1, 10% DMSO): 760 nm
CCCCN1C(=O)c2cccc3c(NCCCN4CCOCC4)ccc(c23)C1=O  emission maximum (chloroform): 503 nm
COC(=O)c1ccccc1-c1c2ccc(=[N+](C)C)cc-2oc2c1ccc1cccc(O)c12  emission maximum (12.5 mM aqueous NaOH; pH 12.1, 10% DMSO): 780 nm
CCCCN1C(=O)c2cccc3c(NCCCCCCCCCCN4CCOCC4)ccc(c23)C1=O  emission maximum (methanol): 538 nm
CN1CCN(c2ccc(/C=C/c3cc(=O)cc(/C=C/c4ccc(N5CCN(C)CC5)cc4)o3)cc2)CC1  emission maximum (acetonitrile/water 1:19 v/v; 10 µM, 298 K, aggregate nanoparticle suspension): 572 nm
Nc1cccc2ccc(/C=C/C(=O)c3ccc(C(F)(F)F)cc3)cc12  emission maximum (toluene; 20 °C): 567 nm
